Results gathered from unrelated publications.
Lines come from different studies, so protocols differ. “And” joins repeats or separate records; there may be more than shown.
Target: Beta-2 adrenergic receptor (ADRB2, Homo sapiens, UniProt P07550)

SMILES | test | system | setting | how to read | quantity | result
O=C(O)c1ccc(-c2nc(-c3ccccc3Cl)c3sccn23)cc1 | radioligand binding |  | 10 µM, added: ICI118551 | reference: control | specific binding | 105% and 95.9%
CN[C@@H]1[C@H](O)[C@H](NC)[C@H]2O[C@]3(O)[C@H](O[C@@H]2[C@H]1O)O[C@H](C)C[C@H]3NC(=O)Cc1ccc(Cl)cn1 | ligand displacement, radioligand |  | 10 µM |  | inhibition | -18%
CCOC(=O)[C@](CC)(CCCSCCOCCOCCNC(=O)c1ccc(-c2c3ccc(=N)c(S(=O)(=O)O)c-3oc3c(S(=O)(=O)O)c(N)ccc23)c(C(=O)O)c1)NC(=O)c1ccc(C2CC2)c(Cc2ccc(F)cc2)n1 | ligand displacement, radioligand |  | 10 µM |  | inhibition | 7%
CCc1nnc(-c2c(OC)cc(-c3cnc4cc(-c5cnn(C)c5)ccn34)cc2OC)o1 | antagonist, radioligand binding |  | 10 µM | reference: control | specific binding | 100%
C/C(=N\OCCCN1CCCCC1)c1ccc(C(F)(F)F)cc1 | antagonist, cAMP |  | 10 µM |  | inhibition | 14.7%
Cc1sc2c(c1C)C(c1ccc(Cl)cc1)=NC(CC(=O)OC(C)(C)C)c1nnc(C)n1-2 (stereo not shown) | ligand displacement, radioligand |  | 1 µM |  | remaining binding | 96.5%
Cc1cc(Nc2nc(C[C@@]3(C(=O)O)CCN(Cc4cccc(Cl)c4F)[C@H](C)C3)cc(C)c2F)[nH]n1 | inhibitor |  | 10 µM |  | inhibition | -1.24%
N[C@H](C(=O)N1CCCC1)C1CCN(c2nccc3c(-c4ncc(Cl)cc4Cl)cccc23)CC1 | functional response, antagonist |  | 10 µM |  | inhibition | -8%
Cc1cc(-c2ccc3ccccc3c2)nnc1NCCN1CCN(C)CC1 | antagonist |  | concentration not given |  | antagonist activity | negative
CCN(CC)CCOc1ccc(-c2nnn(Cc3ccc(OC)cc3)c2N)cc1 | radioligand binding | HEK293 | 10 µM, safety profiling |  | inhibition | -13.4%

For quick reference, copied from above:
SMILES | test | system | setting | how to read | quantity | result
Cc1cc(-c2ccc3ccccc3c2)nnc1NCCN1CCN(C)CC1 | antagonist |  | concentration not given |  | antagonist activity | negative
